Results gathered from unrelated publications.
Every numbered part comes from another study and shows a few of its results, in no order. ± marks the error that the study gave.

Series 1
SMILES: CC(C)(C)n1nc(-c2ccc(Cl)cc2)c2c(N)ncnc21
Cell line: L929
Effect on: necroptosis protection
Method: CCK-8
With: TNF-α-induced
Measurement: viability
5 µM: 66%
1.25 µM: 56.5%
0.007 µM: 14.3%
0.156 µM: 36.7%

Series 2
Organism: Escherichia coli
Effect on: microbial growth
Time: 16 h
Measurement: MIC
CCCCC[C@@H]1CC(=O)N[C@@H](CO)C(=O)N[C@H](CC(N)=O)C(=O)N[C@@H](CO)C(=O)NCC(=O)N(C)[C@H](Cc2ccccc2)C(=O)N[C@@H](CC(C)C)C(=O)N[C@H](CCCN)C(=O)N[C@@H](CCC(=O)O)C(=O)N[C@H](CC(N)=O)C(=O)N[C@H](Cc2c[nH]c3ccccc23)C(=O)N[C@H](CCCN)C(=O)N(C)[C@@H](C(C)C)C(=O)O1: > 64 µg/mL
CCCCC[C@@H](O)CC(=O)N[C@@H]1C(=O)N[C@H](CCCNC(=N)N)C(=O)N[C@@H](CO)C(=O)NCC(=O)N(C)[C@H](Cc2ccccc2)C(=O)N[C@@H](CC(C)C)C(=O)N[C@H](CCCNC(=N)N)C(=O)N[C@@H](CCC(=O)O)C(=O)N[C@H](CCC(N)=O)C(=O)N[C@H](Cc2c[nH]c3ccccc23)C(=O)N[C@@H]([C@@H](C)CC)C(=O)N[C@@H]([C@@H](C)O)C(=O)O[C@@H]1C: > 64 µg/mL
CCCCC[C@@H](O)CC(=O)N[C@@H]1C(=O)N[C@H](CCCNC(=N)N)C(=O)N[C@@H](CO)C(=O)NCC(=O)N(C)[C@H](Cc2ccccc2)C(=O)N[C@@H](CC(C)C)C(=O)N[C@H](CCCNC(=N)N)C(=O)N[C@@H](CO)C(=O)N[C@H]([C@H](C)O)C(=O)N[C@H](Cc2c[nH]c3ccccc23)C(=O)N[C@@H]([C@@H](C)CC)C(=O)NCC(=O)O[C@@H]1C: > 64 µg/mL
CCCCC[C@@H]1CC(=O)N[C@@H](C(C)C)C(=O)N[C@H](CCC(=O)O)C(=O)N[C@@H](CCCNC(=N)N)C(=O)NCC(=O)N2CCC[C@H]2C(=O)N[C@@H](CC(C)C)C(=O)N[C@H](CCC(N)=O)C(=O)N[C@@H](CCC(=O)O)C(=O)N[C@H](Cc2ccc(O)cc2)C(=O)N[C@H](Cc2c[nH]c3ccccc23)C(=O)NCCCC(=O)O1: > 64 µg/mL
CCCCC[C@@H]1CC(=O)N[C@@H](C(C)C)C(=O)N[C@H](CCCNC(=N)N)C(=O)N[C@@H](C(C)C)C(=O)NCC(=O)N2CCC[C@H]2C(=O)N[C@@H](CC(C)C)C(=O)N[C@H](CCCNC(=N)N)C(=O)N[C@@H](CCC(=O)O)C(=O)N[C@H](Cc2ccc(O)cc2)C(=O)N[C@H](Cc2c[nH]c3ccccc23)C(=O)NCCCC(=O)O1: > 64 µg/mL

Series 3
SMILES: Cn1cc(-c2cccc(CN3CCC4(CC3)COc3c4ccc4c3CN([C@H]3CCC(=O)NC3=O)C4=O)c2)cn1
Time: time not given
Measurement: recovery
plasma protein binding; rat plasma: 63.3%
plasma protein binding; human plasma: 83.1%
Caco-2; apical to basolateral: 78.1%
plasma protein binding; mouse plasma: 72.8%
Caco-2; basolateral to apical: 58.9%
plasma protein binding; monkey plasma: 73.5%

Single results of other studies
Organism: Plasmodium falciparum
Time: 72 h
FC(F)(F)c1ccc(C2=NOC3(NC(c4ccccc4)=NO3)N2c2ccccc2)cc1 (centres unmarked) — IC50 (parasite growth; SB1-A6 atovaquone-resistant): 16.4 ± 7.75 µM
O=[N+]([O-])c1ccc(C2=NOC3(NC(c4ccccc4)=NO3)N2c2ccccc2)cc1 (centres unmarked) — antiplasmodial activity (SYBR Gold; SB1-A6, atovaquone-resistant; concentration not given): inactive

Some of these lines once more (series 2):
CCCCC[C@@H]1CC(=O)N[C@@H](CO)C(=O)N[C@H](CC(N)=O)C(=O)N[C@@H](CO)C(=O)NCC(=O)N(C)[C@H](Cc2ccccc2)C(=O)N[C@@H](CC(C)C)C(=O)N[C@H](CCCN)C(=O)N[C@@H](CCC(=O)O)C(=O)N[C@H](CC(N)=O)C(=O)N[C@H](Cc2c[nH]c3ccccc23)C(=O)N[C@H](CCCN)C(=O)N(C)[C@@H](C(C)C)C(=O)O1: > 64 µg/mL
CCCCC[C@@H]1CC(=O)N[C@@H](C(C)C)C(=O)N[C@H](CCC(=O)O)C(=O)N[C@@H](CCCNC(=N)N)C(=O)NCC(=O)N2CCC[C@H]2C(=O)N[C@@H](CC(C)C)C(=O)N[C@H](CCC(N)=O)C(=O)N[C@@H](CCC(=O)O)C(=O)N[C@H](Cc2ccc(O)cc2)C(=O)N[C@H](Cc2c[nH]c3ccccc23)C(=O)NCCCC(=O)O1: > 64 µg/mL
